Experimental data gathered from unrelated publications.
Each line is one published result; not all experiments were run side by side. Numbers after ± are the reported error. Converted amounts (≈) assume the structure as drawn.

SMILES | tested on | assay | system | setting | scale | endpoint | result
N=C(N)NCCC[C@@H]1NC(=O)[C@H](CCCCNC(=O)CCOCCOCCOCCOCCNC(=O)CC[C@H](NC(=O)CCOCCOCCOCCOCCNC(=O)CC[C@H](NC(=O)CN2CCN(CC(=O)O)CCN(CC(=O)O)CCN(CC(=O)O)CC2)C(=O)NCCOCCOCCOCCOCCC(=O)N[C@@H](CCC(=O)NCCOCCOCCOCCOCCC(=O)NCCCC[C@@H]2NC(=O)[C@@H](Cc3ccccc3)NC(=O)[C@H](CC(=O)O)NC(=O)CNC(=O)[C@H](CCCNC(=N)N)NC2=O)C(=O)NCCOCCOCCOCCOCCC(=O)NCCCC[C@@H]2NC(=O)[C@@H](Cc3ccccc3)NC(=O)[C@H](CC(=O)O)NC(=O)CNC(=O)[C@H](CCCNC(=N)N)NC2=O)C(=O)NCCOCCOCCOCCOCCC(=O)NCCCC[C@@H]2NC(=O)[C@@H](Cc3ccccc3)NC(=O)[C@H](CC(=O)O)NC(=O)CNC(=O)[C@H](CCCNC(=N)N)NC2=O)NC(=O)[C@@H](Cc2ccccc2)NC(=O)[C@H](CC(=O)O)NC(=O)CNC1=O [indium-111 labelled] |  |  | female athymic nude mice, heart | intravenous, 3 µCi, 0.5 h, U-87 MG glioma xenograft |  | tissue uptake | 0.57 ± 0.15 %ID/g
O=C(O)CCC(NP(=O)(O)OCCC[C@@H](NC(=O)CCC(NC(=O)CCCCCNC(=O)c1ccc([18F])cc1)C(=O)O)C(=O)O)C(=O)O (stereo partly shown) | CWR22Rv1 tumour model |  | host not given, blood | intravenous, 1 h, tumour-bearing |  | tracer uptake | 0.17 %ID/g
CCN(Cc1ccccc1)C(=O)CCc1nc(CN2CCN(C(=O)Cc3ccc(OC)c(OC)c3)CC2)no1 |  | cold withdrawal threshold, cold plate | mouse CCI model | 20 mg/kg, 4 °C, dosing from day 11 |  | onset day | 11 days
CCCCCc1cc(OC(=O)C(NC(=O)CCC(=O)O)C(C)C)c2c(c1)OC(C)(C)C1CCC(C)=CC21 (stereo not shown) |  |  | rabbit, α-chymotrypsin-induced glaucoma | concentration not given, 2 h | reference: baseline | intraocular pressure | 54%
COC[C@@H](NC(C)=O)C(=O)NCc1ccc(N=[N+]=[N-])cc1 | voltage-gated sodium channel | sodium current, whole-cell patch clamp | CAD | 40 µM, 5 min washout, test potential -10 mV, added: UV irradiation | reference: UV-irradiated cells without drug | current recovery | 75%
CC(=N)N1CC23C4C5CC5C5C4C4C2C2CC2C4C53C1 (stereo not shown) | Influenza A virus | viral replication | MDCK, H1N1 A/PR/8/34 |  |  | EC50 | > 100 µM
CCCCCCCCC(=O)NCc1ccc(O)c(OC)c1 | mouse mAb 1-F12 | antibody binding, indirect competitive ELISA |  | added: coating antigen hapten 5-OVA |  | IC50 | 0.0881 µg/mL
N=C(N)NCCCC(N)C(=O)NC[C@@H]1O[C@H](O[C@H]2[C@@H](O)[C@H](O[C@@H]3[C@@H](O)[C@H](NC(=O)C(N)CCCNC(=N)N)C[C@H](N)[C@H]3O[C@H]3O[C@H](CNC(=O)C(N)CCCNC(=N)N)[C@@H](O)[C@H](O)[C@H]3NC(=O)C(N)CCCNC(=N)N)O[C@@H]2CO)[C@H](NC(=O)C(N)CCCNC(=N)N)[C@@H](O)[C@@H]1O (stereo partly shown) | RNase P holoenzyme Escherichia coli |  |  | 37 °C, added: 10 mM Mg2+ |  | IC50 | ~0.5 µM
COc1cc(C(=O)NCCOCCOCCOCCNC(=O)c2ccc([18F])nc2)ccc1NC(=O)C1NC(CC(C)(C)C)C(C#N)(c2ccc(Cl)cc2F)C1c1cccc(Cl)c1F (stereo not shown) | SJSA-1 tumour model |  | host not given, muscle | 1 h, tumour-bearing |  | tracer uptake | 0.85 %ID/g
CN[C@](C)(C[18F])C(=O)O | SK-OV-3 tumour model |  | host not given, liver | 1 h, tumour-bearing |  | tracer uptake | 3 %ID/g
N=C(N)NCCC[C@@H]1NC(=O)[C@H](CCCCNC(=O)CC[C@H](NC(=O)CCOCCOCCOCCOCCNC(=O)CN2CCN(CC(=O)O)CCN(CC(=O)O)CCN(CC(=O)O)CC2)C(=O)NCCCC[C@@H]2NC(=O)[C@@H](Cc3ccccc3)NC(=O)[C@H](CC(=O)O)NC(=O)CNC(=O)[C@H](CCCNC(=N)N)NC2=O)NC(=O)[C@@H](Cc2ccccc2)NC(=O)[C@H](CC(=O)O)NC(=O)CNC1=O [indium-111 labelled] |  |  | athymic nude mice, female, U-87 MG glioma xenograft, tumour and liver | intravenous, 0.5 h | reference: tumour over liver | tumour to tissue ratio | 2.16 ± 0.39
CC1CN1c1cc(O)c2nc(N)sc2c1 (stereo not shown) | MLL-ENL leukaemia patient cells |  | human | concentration not given, 10 days |  | colony formation | inactive
C[C@@](O)(C(F)F)[C@H](NC(=O)c1ccc(C#CC#CC2CC2)cc1)C(=O)NO | Burkholderia cepacia | agar dilution | clinical isolates |  |  | MIC90 | 0.25 µg/mL (≈ 0.664 µM)
CONC(=O)[C@H]1[C@@H](O)[C@@]2(O)c3c(OC)cc(OC)cc3O[C@@]2(c2ccc(OC)cc2)[C@@H]1c1ccccc1 | Human coronavirus 229E | item: nsp8 and dsRNA | MRC-5 | concentration not given, 24 h post-infection |  | replication complex formation | decreased
CC[C@H](C)[C@H](NC(=O)[C@@H](NC(=O)[C@H](CC(=O)O)NC(C)=O)[C@@H](C)O)C(=O)N[C@@H](CCCNC(=N)N)C(=O)N[C@@H](CC(C)C)C(=O)N[C@@H](CC(C)C)C(=O)N[C@@H](Cc1ccccc1)C(=O)N[C@@H](CCC(N)=O)C(=O)N[C@@H](CC(C)C)C(=O)N[C@@H](CCSC)C(=O)N[C@@H](CCCNC(=N)N)C(=O)N1CCC[C@H]1C(=O)N1CCC[C@H]1C(=O)N[C@@H](CC(N)=O)C(=O)N[C@@H](CCSC)C(=O)N[C@H](C(=O)N1CCC[C@H]1C(=O)N[C@@H](C)C(=O)N[C@H](C(=O)N[C@@H](CC(N)=O)C(=O)N[C@@H](C)C(N)=O)C(C)C)[C@@H](C)O |  | item: HA-41 tetramer | antigen-experienced tetramer+ CD4 T cells, healthy adults, HLA-DRB1*0101 | dose not given |  | α4β7+ CCR9− cells | 50%
CCC1(CC)C2CC3CC(C2)CC1(NC)C3 | Influenza A virus | viral replication | MDCK, A/Ned/378/05 (H1N1) |  |  | EC50 | 8.7 ± 0.3 µM
